Published values gathered from unrelated publications.
A part holds a random share of what one study measured.

Sample 1
Target: RING finger protein unkempt homolog, zinc fingers 1-6, SBP tag (UNK, Homo sapiens, UniProt Q9C0B0, residues 30-357)
Chain of UniProt Q9C0B0 (30-357, looked up): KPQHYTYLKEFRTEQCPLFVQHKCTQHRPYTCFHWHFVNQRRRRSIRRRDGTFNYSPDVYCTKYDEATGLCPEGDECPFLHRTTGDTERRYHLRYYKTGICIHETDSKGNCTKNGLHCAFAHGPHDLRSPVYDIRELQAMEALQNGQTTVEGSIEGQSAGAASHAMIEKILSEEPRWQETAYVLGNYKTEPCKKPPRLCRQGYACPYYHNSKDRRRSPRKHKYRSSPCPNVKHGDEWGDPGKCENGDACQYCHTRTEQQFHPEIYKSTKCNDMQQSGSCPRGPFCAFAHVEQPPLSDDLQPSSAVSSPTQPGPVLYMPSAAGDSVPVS
Method: RNA Bind-n-Seq
Form: RNA
Matrix: in vitro
Tested at: 100 nM
Setting: RNA with constant flanks, vertebrate orthologous sites, ends assumed
Reference: input RNA pool
Direction: higher = stronger binding
Constant ends, left off below: GGGAGUUCUACAGUCCGACGAUC … CAACAGAGGAUUGAGCAUCA
Strand	bound/input enrichment
GACCUCCUGAACUUCUGGCUUUCAAGCUGUGGCUCUUUUAGAUACUGGUUUUAUUUUCUUUACAAUUUUCCCGCCUUUCUUCCCCUGUUCCCAAGGUUUGACUCAUGGAUCUUACUCUUC	3.8 ratio
GACGAAGAUGGUUGUACAUUAUUCAUUUAGAAAAUAUAAAAAUUCAUUUUGUUUUGAAGCUAGUUAUUAAACUGGAAUAGCAGUUAUAUCCCUGAGAAUGGGGCCCUUCUCCUGACAUUC	3.31 ratio
CAGGGAGAAGAGAUCACAAACUCAAAGAAAAACUAUGAAAGAGUUCUAAUAGUUAAAAGCCAGGAAAGAUUAGGACAAUUUUACAAAUGAGCAGUCAAAAAGAAAAGAACAGAAAAAGCC	0.731 ratio
CAUAAUCACUCUAUUGUAAUCUGAAAAAAGUGUAACAUUGUGUAGCCUUUUUGUAUAAAAUAGACAAAUAGAAAUGGUCCAAUUAGUUUCCUUUUUAAUAUGCUUAAAAUAAGCAGGUGA	1.36 ratio
UGGGCAUCCUCUCUGGGGAGCUGCUGGCCGCUUAGCGUUGUUUGAUUUUUGACCUUGACAUAGUAGAUAGGCUUGUGGUUUUUUUAAUUUAAAGAUAUUAAGACUUAAUUCACUAAAAUU	0.82 ratio
GUGGGGAUUGGGGUGGGGUGGGAAGAAGAUGUAUGGAUAUUAUUGGCAUUUUUAAGUGUUCAGAGUUUUUUGUGUUGUUUUUUUUUUUUUGGUUUUGUUUUGUUUUUGUUUUCCCUCUCG	1.16 ratio
CCAGUUUUCCAUAUAGGAUUGGCCUCAAAUCUAUAGGAUUUUUGACAAAUGUACCAUAUCUAGUUGUGUUGUUUCACUAUUUUUUUUAUUAGCCUGUAAAUAAAGAUGGCAUCUCUCCUA	1.52 ratio
AGUCCCCUGGGCGGACGGAUUUUUUUUUUUUUAGUGUCUUGAAACUUAAAACUGUGCUUGUAGGAGACUGUAACCUUUUUGUCUUUUUUUUAAACAAAUAACCUCCACCUCCAGUGGCUG	0.722 ratio
GUACUACCUGUGCAAAUCUCACAACACUGAAUACAAAGUAGCAAUUUUCAUAGUCACAGUUAGGUAGCUUUAGGGCAAUAUUGCCAUGGUUUUACUCAUGUGCAGGUUUUGAAAAUGUAC	1.83 ratio
GUAUUAGUGUCAUACCAGCAUAUUAACCUCCGUCUGUGCACAGCUUCCGACGUUACCGUCUAGUUAGGUUUUUAUUUAAAAGAUGAAAAAACUGCUUUUCCCAAGACGUUUUUUAAAAAC	1.91 ratio
UCAUCUCUUUUUAUAUGUCCAAAAUGGCUUUGAAAUUUUUAAACAGUUGCUAGUUUUACUCAGCUCUGCCCUCAUGAAGUAUUGUUGUUGGUCACUGACAGACAGAGUCUGUUACUUCAG	0.442 ratio

Sample 2
Target: Histone acetyltransferase KAT6A, both winged helices, GST fusion (KAT6A, Homo sapiens, UniProt Q92794, residues 1-181)
Method: protein binding microarray
Form: double-stranded DNA, one strand shown
Matrix: in vitro
Tested at: not given
Setting: 8-mer, flanks averaged, mean of 2 arrays, mostly near background
Reference: not given
Direction: higher = stronger binding
Residues (chain): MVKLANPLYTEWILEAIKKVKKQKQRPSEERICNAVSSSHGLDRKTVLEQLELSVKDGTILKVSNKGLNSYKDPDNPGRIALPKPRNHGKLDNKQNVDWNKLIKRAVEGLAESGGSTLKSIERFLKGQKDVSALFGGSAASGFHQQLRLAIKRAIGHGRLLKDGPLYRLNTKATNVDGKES
Strand	E-score
CCAGCCGA	0.158
CTGCATAA	-0.188
GTCCGTGA	0.213
CCCTAGAC	-0.232
CACGCTTA	0.0613
CAATTGAA	-0.0521
AATGTCCG	0.254
GGGATTCA	-0.06
AAGAGCCT	-0.106
CATACCTA	-0.171
CTTCAGCA	-0.213
GTAATTAC	0.0168
CTAAATAC	-0.0795
CAGTGCGG	0.251
ATCCCGGC	0.279
TCTAGACA	-0.00839
GTGATGCA	-0.177

Sample 3
Target: RNA binding protein fox-1 homolog 2, RRM domain, GST-SBP tag (RBFOX2, Homo sapiens, UniProt O43251-10, residues 100-194)
Method: RNA Bind-n-Seq
Form: RNA
Matrix: in vitro
Tested at: 365 nM
Setting: natural RNA segment, single round, ends assumed
Reference: no-protein control
Direction: higher = stronger binding
Constant ends, left off below: GGGAGUUCUACAGUCCGACGAUC … UGGAAUUCUCGGGUGCCAA
Target sequence (chain): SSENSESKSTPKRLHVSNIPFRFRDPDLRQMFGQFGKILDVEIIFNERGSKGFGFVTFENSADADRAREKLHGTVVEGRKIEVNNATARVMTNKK
Strand	RBNS enrichment (R)
CUUGGGGUCUGAACUAUGGAGGCUUGGUUGGGGAAUGUGGAUGCCCUUAGAUCCUUUUCUGGGUGAUAAUAGGGAUGUGGGCCUUUUGUGUUUAAGGAGAGUUUCUAAUA	1.48
GUGAGUGUGUGCAACUACUUGUGUGAGGGCAUGGUAGCUAACGUGUGUAUGAGAUCCUAUAUACCAGCAUGUACCAAGAAUGUGUGUGUAGUUUUAAUUAUGCUGCAAUG	18.1
CCCAGGCUGGAGUGCAGUGGUGUGAUCUUGGCUUUCUGCAACGUCUGCCUUCCAGGUUGAAGAGGUUCUCCUGCCUCAGCCUCCUUAGUAGUGGGAUUACAGGUGCCCGC	0.508
AAAUAGAAAGCUAUUUUGAUCUUUAGUGCAAACUAGGGACGUAGCCUCCAUCACCACAACCACACCGCUUCGCUCUGCCAUCCACCCACCGCAGCAGCAUCUUCAAGAAU	0.755
CUUGGAAGGUUUCCCUCCGGGGAAUGCCUCCCUGGAAUGUUCCAGAGACGGAACAUUCUCUAGAGACAACAGUCUGUGCUGCAGAUUGGUUGGAUCACAGAAUGUGUGUC	0.184
AAUGUUUUUGAUUUAUUUGUGUCUUAUAGCUCUAGCUGCUAAUAAAGAUCCCAUGUCCUGCUUUCUCAGUGUUGGUCAAAUGAGUGAAUUUGGAUUUUAGUGGACAAUAG	0.342
UCCAAUAGUUGUGUUUGCCCAAGCCUUUCUCGGCAUCAUCUUGUAUUCCUUAUCAGAUAGUAAGUAACCUGUAAGUUUGGAGUAUUACUGUUUUCUCAGCAUGCAUUAAA	30.7
GAGGUCAGGAUGGAACUACCUCAUUCGGCAAAUUAGCCCCAAAUUGAGCGCUGAAUCGUGUCCCAUGAGAUCAGGCGCCAUCUGUAAAGUCUCCUCUGGAAAUGCCAAUC	0.514
UUCUUUAGGUUUAAAAAAGAGCACUCAUAAUGCAAUAUGUGAAUAAUCAGUGAGGUUGAUUUUUCUUUUUUCCUACCGUUUCAUAGUCUUUGUCUAACUGCUAGUAACCC	0.464
UUGUUCCUGUGGCCAGGAGUUUGGUGACUGAAUCAUUUAUGGGCUCCUUUAAUGGGCCCAUAAAAGCUCUUAGCUUCCUCAGGGGGUCAGCAGAGUUGUUGAAUCUUAAU	0.29
CUCUUCUAGACCCACAGCUUCUUGAUCCACUUGUGGUUUCCAUGUCACUAAUGUAGAAACAUCAUGGACUAGCAUCCCCAGUCUUUGCCCUCAUCCAGCUGUCGCAGCGC	0.811
CACAUGUAUGACAGAGAACAGAGGAUGCCUGUUUUUGCCCCAAAGCUGGAAAUUCAUCACAACCUGAGGCCCAGGAUCUGCUCUGUGCCGGUCCUCUGGGCAGUGUGGGG	0.593

Sample 4
Target: Phosphate system positive regulatory protein PHO4, full length, GST-tagged (PHO4, Saccharomyces cerevisiae, UniProt P07270, residues 1-312)
Method: competition protein-binding microarray
Form: double-stranded DNA, one strand shown
Matrix: in vitro
Tested at: 2 µM
Setting: whole 60-bp probe, lowest competitor level
Together with: Cbf1 competitor, 0.05 µM
Direction: higher = stronger binding
Constant ends, left off below: … GTCTTGATTCGCTTGACGCTGCTG
Residues (chain): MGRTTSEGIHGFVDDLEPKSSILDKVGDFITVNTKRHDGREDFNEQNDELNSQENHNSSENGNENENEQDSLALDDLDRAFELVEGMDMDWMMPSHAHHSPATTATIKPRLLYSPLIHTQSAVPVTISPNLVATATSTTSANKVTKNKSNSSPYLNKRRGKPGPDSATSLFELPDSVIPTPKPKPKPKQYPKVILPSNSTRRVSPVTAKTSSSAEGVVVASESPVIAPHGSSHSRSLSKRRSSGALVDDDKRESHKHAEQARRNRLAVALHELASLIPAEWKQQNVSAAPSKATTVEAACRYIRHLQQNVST
Strand	fluorescence intensity [a.u.]
CTCACAGATCTTCAACACGTGAAGATCGGTTGCATT	13100
TAGCAGGGGGATGAACATGTGAACATGTTGCAACAA	8250
TTAGGTGTCTGGCTCAGCGTGAGAAGATCTTAGAAG	3750
CATCATCATCATCATCCATATCAGTAATAGGTTTTC	3740
CGTCCTAGTGATTCCCACGTGTTTTCCATGAGGAAG	17800
TCGGAGGCCACTCACCACGGGAGGAGGCCAAGGCTG	4990
TGCGCAACAACTTGGCGAGTGGGTGTATGTCTAGAA	5130
GCTTCCCTATTTTTGCACGTTTTGGTTGCTCCCAAG	11200
CATACCCAACCTTGTGTAGTGGGTGAAGATATTTGT	5030
CAATCTGCGAATGCATCCGTGCCAGAATGAAACGGC	5950
GTCAAGCTGAAATCTCACGTGGGTACAGACGGGGAA	15100
CTTAAATGAAACTGACGCGTGGCCGTAGATTCCAAC	8980
CGTCCTAGTGATTGGCGGGTGGGTGCCATGAGGAAG	6930
CCTGGCACTCGCTATTTCGTGACGGCGTTCCAGGAC	4720
AGTGTCTCCTCAGACGACGTGTCGGTTTTGTATATC	6410
ATACTTGAAACATTTCACGTTCCCGAAGACGTAGAC	8800
TGCGCAACAACTTGTCACGTTACTTTATGTCTAGAA	8680
AAGCAAGGTGATGTTCAGCTGACCGGCAGCATCGGC	2840
ACAAGAACACCATCCCAGGTGATAGGAGTGCTCTTT	4710
TTTAAAAGGAGCCATCACGTTCTGCAGCACTTGAAT	11300
AAAGCGGTAATTTTTCACGTGCGCTCACATATCTAT	13400
TGCGCAACAACTTTTCACGTGATCTTATGTCTAGAA	12000
ATCAGAAGACCGCGAAACGTGCCGATGCAACCTTTT	13400
ATTAAGAGAAGGAAGAGCGTGCTAAGCAGGTTCTTC	8990
CATACCCAACCTTGCCTCGTGGGTGAAGATATTTGT	11600

Some of these lines once more (sample 2):
Strand	E-score
GTAATTAC	0.0168
AATGTCCG	0.254
GGGATTCA	-0.06
CTGCATAA	-0.188
CAATTGAA	-0.0521
ATCCCGGC	0.279
GTGATGCA	-0.177
TCTAGACA	-0.00839
AAGAGCCT	-0.106
